Measurements of several laboratories.
Protocols differ between the studies behind these lines. ± marks the error that the study gave.

Structure (SMILES)	species	sample	route	dose	time	setting	AUC(0-inf)
O=C(NS(=O)(=O)c1cccs1)c1cc2ccccc2n1Cc1ccc(Br)c2ccccc12	mouse	plasma	oral	2 mg/kg	–	–	364 ± 114 ng·h/mL
O=C1CCC(N2C(=O)c3ccc(N4CCC(C(=O)N5CCC(CCN6CCC(CNC(=O)c7cccc(-c8noc(C(F)(F)F)n8)c7)(c7nc(-c8ccccc8)cs7)CC6)CC5)CC4)cc3C2=O)C(=O)N1 (centres unmarked)	ICR mouse	plasma	intraperitoneal	30 mg/kg	–	–	12700 ± 3750 ng·h/mL
O=C1CCC(N2Cc3cc(C(=O)O)c(F)cc3C2=O)C(=O)N1 (centres unmarked)	male CD-1 mouse	plasma	oral	10 mg/kg of parent drug	–	–	617 ± 298 ng·h/mL
O=C1C2CC3CC1CC(C(=O)N1CCN(c4ccc([N+](=O)[O-])c5ncccc45)CC1)(C3)C2	male ICR mouse	plasma	intravenous	1 mg/kg	–	–	142 ng·h/mL
C/C(N)=N/C(=N\S(=O)(=O)c1ccc(C(F)(F)F)cc1)N1C[C@H](c2ccccc2)C(c2ccc(Cl)cc2)=N1	C57BL/6 mouse	brain	intravenous	10 mg/kg	–	observed value	547 ng·h/mL
C=C(NC(=O)c1csc(-c2nc3c(cc2O)-c2nc(cs2)C(=O)NC(C(C)O)C(=O)NC(=C(C)OC)c2nc(cs2)C(=O)NC2c4nc(cs4)C(=O)NC(COC(=O)c4c5c6c(cccc6n4O)COC(=O)C(OC4CC(C)(O)C(N(C)C)C(C)O4)C2OC5)c2nc-3cs2)n1)C(N)=O (centres unmarked)	Sprague-Dawley rats, female	plasma	intravenous infusion	6 mg/kg	day 7	multiple dosing	1660 ng·h/mL
Fc1cccc(-n2cc(-c3ccccc3)nc2NCc2ccc(C(F)(F)F)c(F)c2)c1	CD-1 mouse, male	intestine	intraperitoneal	25 mg/kg	–	–	173000 ng·h/mL
O=C(c1ccccc1)N1C(c2ccc(OCC3CCN(CCCF)C3)cc2)c2ccc(O)cc2CC12CC2 (centres unmarked)	C57BL/6J mouse	plasma	oral	25 mg/kg	–	group mean	2930 ng·h/mL

Excerpt of the above:
Structure (SMILES)	species	sample	route	dose	time	setting	AUC(0-inf)
O=C1C2CC3CC1CC(C(=O)N1CCN(c4ccc([N+](=O)[O-])c5ncccc45)CC1)(C3)C2	male ICR mouse	plasma	intravenous	1 mg/kg	–	–	142 ng·h/mL
